Measured values of several laboratories.
Parts stem from different laboratories: compare values within a part only. “And” joins repeats or separate records; there may be more than shown.
Sequence of UniProt Q9BYP7 (whole entry, looked up): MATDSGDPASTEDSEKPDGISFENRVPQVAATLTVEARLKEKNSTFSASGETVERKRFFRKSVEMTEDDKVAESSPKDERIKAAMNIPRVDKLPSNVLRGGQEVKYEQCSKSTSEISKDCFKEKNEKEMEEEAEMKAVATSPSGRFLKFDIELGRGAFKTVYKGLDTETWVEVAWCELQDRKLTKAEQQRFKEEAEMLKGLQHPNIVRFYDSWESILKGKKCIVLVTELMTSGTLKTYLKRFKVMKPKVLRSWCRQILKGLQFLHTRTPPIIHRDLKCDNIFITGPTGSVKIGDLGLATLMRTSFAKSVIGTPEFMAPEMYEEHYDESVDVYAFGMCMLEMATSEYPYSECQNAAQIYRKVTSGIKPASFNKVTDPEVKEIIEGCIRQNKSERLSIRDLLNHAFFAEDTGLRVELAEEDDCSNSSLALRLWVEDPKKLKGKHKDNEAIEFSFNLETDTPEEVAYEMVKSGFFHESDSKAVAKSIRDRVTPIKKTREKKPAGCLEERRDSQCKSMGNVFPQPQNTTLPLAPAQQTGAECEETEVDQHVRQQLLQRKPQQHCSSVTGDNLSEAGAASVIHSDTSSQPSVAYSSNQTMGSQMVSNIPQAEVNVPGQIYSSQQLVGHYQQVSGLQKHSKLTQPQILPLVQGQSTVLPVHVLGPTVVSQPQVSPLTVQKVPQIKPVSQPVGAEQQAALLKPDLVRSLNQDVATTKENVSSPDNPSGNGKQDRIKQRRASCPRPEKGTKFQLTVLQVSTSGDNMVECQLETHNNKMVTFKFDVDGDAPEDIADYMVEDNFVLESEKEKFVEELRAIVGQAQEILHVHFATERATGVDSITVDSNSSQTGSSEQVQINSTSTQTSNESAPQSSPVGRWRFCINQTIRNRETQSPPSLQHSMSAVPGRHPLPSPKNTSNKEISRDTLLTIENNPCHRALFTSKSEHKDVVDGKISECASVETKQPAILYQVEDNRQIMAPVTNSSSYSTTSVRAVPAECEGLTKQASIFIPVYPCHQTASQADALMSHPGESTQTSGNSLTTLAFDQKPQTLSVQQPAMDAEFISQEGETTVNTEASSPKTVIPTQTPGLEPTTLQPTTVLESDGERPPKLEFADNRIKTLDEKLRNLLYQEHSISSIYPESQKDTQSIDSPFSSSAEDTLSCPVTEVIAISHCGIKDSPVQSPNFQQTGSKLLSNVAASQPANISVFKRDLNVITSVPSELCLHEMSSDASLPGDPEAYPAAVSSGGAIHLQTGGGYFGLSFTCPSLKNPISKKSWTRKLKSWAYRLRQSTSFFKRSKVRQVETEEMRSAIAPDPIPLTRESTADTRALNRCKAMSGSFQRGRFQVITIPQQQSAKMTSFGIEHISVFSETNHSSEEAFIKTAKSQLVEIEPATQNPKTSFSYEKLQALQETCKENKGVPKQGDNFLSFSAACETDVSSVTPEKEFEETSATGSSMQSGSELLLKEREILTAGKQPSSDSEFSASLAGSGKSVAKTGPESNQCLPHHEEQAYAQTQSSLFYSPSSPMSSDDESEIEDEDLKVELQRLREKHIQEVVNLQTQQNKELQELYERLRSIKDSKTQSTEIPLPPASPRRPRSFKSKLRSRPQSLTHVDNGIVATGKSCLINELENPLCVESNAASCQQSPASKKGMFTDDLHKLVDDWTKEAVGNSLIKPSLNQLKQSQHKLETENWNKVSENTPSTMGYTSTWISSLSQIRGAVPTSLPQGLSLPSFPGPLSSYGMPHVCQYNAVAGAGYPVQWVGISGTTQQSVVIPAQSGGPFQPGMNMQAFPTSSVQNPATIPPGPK
Sequence of UniProt P54762 (whole entry, looked up): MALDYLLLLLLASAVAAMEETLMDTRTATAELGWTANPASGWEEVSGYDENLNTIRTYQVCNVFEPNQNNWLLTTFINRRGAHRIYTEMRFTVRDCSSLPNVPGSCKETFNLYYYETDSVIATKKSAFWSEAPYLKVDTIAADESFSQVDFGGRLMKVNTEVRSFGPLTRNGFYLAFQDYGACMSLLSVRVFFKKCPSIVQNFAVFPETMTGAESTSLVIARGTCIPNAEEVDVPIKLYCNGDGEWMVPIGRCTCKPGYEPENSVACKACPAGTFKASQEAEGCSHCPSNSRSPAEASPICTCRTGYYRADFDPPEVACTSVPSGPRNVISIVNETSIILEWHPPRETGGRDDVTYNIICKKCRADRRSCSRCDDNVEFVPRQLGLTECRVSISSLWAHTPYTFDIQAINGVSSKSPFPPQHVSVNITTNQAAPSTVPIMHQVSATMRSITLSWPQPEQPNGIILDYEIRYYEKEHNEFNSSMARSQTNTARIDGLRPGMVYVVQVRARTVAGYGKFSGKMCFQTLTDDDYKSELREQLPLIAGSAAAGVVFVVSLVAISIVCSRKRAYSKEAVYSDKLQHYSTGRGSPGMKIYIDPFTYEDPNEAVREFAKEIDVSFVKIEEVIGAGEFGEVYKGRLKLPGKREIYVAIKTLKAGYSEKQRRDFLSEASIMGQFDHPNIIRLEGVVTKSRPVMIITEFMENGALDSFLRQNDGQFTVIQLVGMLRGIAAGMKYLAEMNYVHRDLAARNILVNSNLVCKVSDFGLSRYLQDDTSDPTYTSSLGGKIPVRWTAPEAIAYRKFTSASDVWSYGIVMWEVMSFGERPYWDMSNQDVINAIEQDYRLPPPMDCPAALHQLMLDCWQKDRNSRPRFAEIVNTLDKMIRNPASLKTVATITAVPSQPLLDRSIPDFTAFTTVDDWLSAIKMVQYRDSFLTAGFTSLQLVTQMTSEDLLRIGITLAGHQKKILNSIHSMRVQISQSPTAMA
Sequence of UniProt Q8NE63 (whole entry, looked up): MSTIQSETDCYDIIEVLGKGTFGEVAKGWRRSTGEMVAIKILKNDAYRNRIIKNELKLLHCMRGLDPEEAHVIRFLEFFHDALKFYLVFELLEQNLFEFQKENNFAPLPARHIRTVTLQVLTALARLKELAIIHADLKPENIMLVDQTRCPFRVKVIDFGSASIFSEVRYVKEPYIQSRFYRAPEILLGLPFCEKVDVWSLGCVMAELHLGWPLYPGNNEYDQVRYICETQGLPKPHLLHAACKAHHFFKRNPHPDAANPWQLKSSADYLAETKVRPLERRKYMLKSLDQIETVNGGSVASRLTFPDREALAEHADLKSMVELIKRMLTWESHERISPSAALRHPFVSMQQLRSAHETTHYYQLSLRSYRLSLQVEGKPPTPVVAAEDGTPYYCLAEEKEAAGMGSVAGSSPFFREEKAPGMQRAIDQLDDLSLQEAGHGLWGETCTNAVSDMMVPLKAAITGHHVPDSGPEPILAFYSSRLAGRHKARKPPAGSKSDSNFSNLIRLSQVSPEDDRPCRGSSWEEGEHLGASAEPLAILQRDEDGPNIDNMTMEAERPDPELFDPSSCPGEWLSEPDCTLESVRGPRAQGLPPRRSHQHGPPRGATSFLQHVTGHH
Sequence of UniProt P11802 (whole entry, looked up): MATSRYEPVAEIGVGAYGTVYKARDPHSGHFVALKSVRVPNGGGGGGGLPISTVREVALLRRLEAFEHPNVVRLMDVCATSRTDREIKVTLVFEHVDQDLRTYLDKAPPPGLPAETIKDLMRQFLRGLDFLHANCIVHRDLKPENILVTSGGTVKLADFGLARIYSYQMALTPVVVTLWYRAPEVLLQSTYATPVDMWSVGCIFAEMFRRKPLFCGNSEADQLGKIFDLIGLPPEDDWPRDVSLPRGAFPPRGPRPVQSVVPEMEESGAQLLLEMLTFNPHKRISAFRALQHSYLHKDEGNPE
Sequence of UniProt Q13237 (whole entry, looked up): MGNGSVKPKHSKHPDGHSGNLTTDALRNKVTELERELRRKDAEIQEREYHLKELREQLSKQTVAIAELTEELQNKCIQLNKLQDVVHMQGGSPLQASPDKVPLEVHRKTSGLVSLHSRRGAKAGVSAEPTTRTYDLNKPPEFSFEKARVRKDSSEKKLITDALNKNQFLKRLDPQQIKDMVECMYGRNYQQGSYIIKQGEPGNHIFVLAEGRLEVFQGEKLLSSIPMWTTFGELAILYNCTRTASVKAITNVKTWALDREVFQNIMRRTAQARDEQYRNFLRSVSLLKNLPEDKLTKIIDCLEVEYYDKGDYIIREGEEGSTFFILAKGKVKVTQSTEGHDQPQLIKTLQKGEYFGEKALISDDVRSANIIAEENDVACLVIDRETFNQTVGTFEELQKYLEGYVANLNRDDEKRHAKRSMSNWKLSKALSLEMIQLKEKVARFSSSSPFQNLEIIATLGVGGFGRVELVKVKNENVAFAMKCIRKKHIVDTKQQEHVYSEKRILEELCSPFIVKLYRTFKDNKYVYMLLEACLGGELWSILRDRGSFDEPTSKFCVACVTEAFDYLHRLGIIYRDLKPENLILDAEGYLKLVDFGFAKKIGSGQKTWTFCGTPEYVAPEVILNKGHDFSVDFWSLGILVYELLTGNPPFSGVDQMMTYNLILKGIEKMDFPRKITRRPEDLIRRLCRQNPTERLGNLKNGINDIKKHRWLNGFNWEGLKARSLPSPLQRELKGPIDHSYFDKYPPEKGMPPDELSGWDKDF

Series 1 — concentration: 0.1 µM; quantity: remaining binding
SMILES: CCOC(=O)c1cc2cc(-c3cc(C(=O)NCc4ccc(C(=O)O)cc4)nn3C)ccc2[nH]1
TRAF2 and NCK-interacting protein kinase (TNIK, Homo sapiens, UniProt Q9UKE5); cell-free assay, competition with immobilised ligand: 100%
Proto-oncogene tyrosine-protein kinase receptor Ret (RET, Homo sapiens, UniProt P07949, V804L); cell-free assay, competition with immobilised ligand: 99%
cGMP-dependent protein kinase 2 (PRKG2, Homo sapiens, UniProt Q13237); cell-free assay, competition with immobilised ligand: 93%
Ephrin type-B receptor 1 (EPHB1, Homo sapiens, UniProt P54762); cell-free assay, competition with immobilised ligand: 100%
Mast/stem cell growth factor receptor Kit, autoinhibited (KIT, Homo sapiens, UniProt P10721); cell-free assay, competition with immobilised ligand: 83%
MAP/microtubule affinity-regulating kinase 4 (MARK4, Homo sapiens, UniProt Q96L34); cell-free assay, competition with immobilised ligand: 79%
Homeodomain-interacting protein kinase 4 (HIPK4, Homo sapiens, UniProt Q8NE63); cell-free assay, competition with immobilised ligand: 87%
Cyclin-dependent kinase 13 (CDK13, Homo sapiens, UniProt Q14004); cell-free assay, competition with immobilised ligand: 83%
Serine/threonine-protein kinase WNK2 (WNK2, Homo sapiens, UniProt Q9Y3S1); cell-free assay, competition with immobilised ligand: 85%
Serine/threonine-protein kinase WNK3 (WNK3, Homo sapiens, UniProt Q9BYP7); cell-free assay, competition with immobilised ligand: 96%
Ephrin type-B receptor 3 (EPHB3, Homo sapiens, UniProt P54753); cell-free assay, competition with immobilised ligand: 90%
Cyclin-dependent kinase 4 (CDK4, Homo sapiens, UniProt P11802); cell-free assay, competition with immobilised ligand: 82%
Serine/threonine-protein kinase mTOR (MTOR, Homo sapiens, UniProt P42345); cell-free assay, competition with immobilised ligand: 100%
Mitogen-activated protein kinase 13 (MAPK13, Homo sapiens, UniProt O15264); cell-free assay, competition with immobilised ligand: 100%
Serine/threonine-protein kinase 10 (STK10, Homo sapiens, UniProt O94804); cell-free assay, competition with immobilised ligand: 100%
Platelet-derived growth factor receptor beta (PDGFRB, Homo sapiens, UniProt P09619); cell-free assay, competition with immobilised ligand: 86%
Serine/threonine-protein kinase PAK 2 (PAK2, Homo sapiens, UniProt Q13177); cell-free assay, competition with immobilised ligand: 100%
AP2-associated protein kinase 1 (AAK1, Homo sapiens, UniProt Q2M2I8); binding: 100%

Series 2 — read-out: enzyme activity; action: inhibitor; concentration: 0.5 µM; baseline: control; quantity: remaining activity
Target: Aurora kinase B (AURKB, Homo sapiens, UniProt Q96GD4)
Sequence of UniProt Q96GD4 (whole entry, looked up): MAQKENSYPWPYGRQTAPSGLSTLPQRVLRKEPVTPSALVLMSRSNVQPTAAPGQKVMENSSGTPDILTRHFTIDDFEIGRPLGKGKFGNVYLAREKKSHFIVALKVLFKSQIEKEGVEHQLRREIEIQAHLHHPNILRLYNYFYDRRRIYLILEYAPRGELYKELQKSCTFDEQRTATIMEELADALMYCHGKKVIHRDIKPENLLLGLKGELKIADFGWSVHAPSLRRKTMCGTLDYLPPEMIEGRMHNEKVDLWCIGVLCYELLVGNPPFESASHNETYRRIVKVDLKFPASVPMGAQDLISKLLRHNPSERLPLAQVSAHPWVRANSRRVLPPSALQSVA
N#Cc1cnc2cnc(NCc3cccnc3)cc2c1Nc1ccc(F)c(Cl)c1: 90.1%
O=C(c1cc2cc(O)ccc2[nH]1)c1cc2cc(O)ccc2[nH]1: 24.2%
O=C1NC(=O)c2c1c1c3ccccc3[nH]c1n1cncc21: 25.2%
COc1cccc(-c2cc(=O)c3ccccc3o2)c1N: 102%
c1ccc(-c2n[nH]c3c2oc2ccccc23)cc1: 50.8%
COc1ccc2c(c1)c(C1=C(c3c[nH]c4ccccc34)C(=O)NC1=O)cn2CCCN(C)C: 88.5%
COc1ccc(COc2ccc(Cc3cnc(N)nc3N)cc2OC)cc1: 104%
O=C1Nc2ccccc2/C1=C\c1c(Cl)[nH]c2ccccc12: 97.9%

Series 3 — organism: Sarcocystis neurona; read-out: parasite activity; concentration: 10 µM; time: 96 h; quantity: activity class
CN(C)C(=O)C(CCN1CCC(O)(c2ccc(Cl)cc2)CC1)(c1ccccc1)c1ccccc1: inactive
CC1(C)S[C@@H]2[C@H](NC(=O)[C@H](N)c3ccc(O)cc3)C(=O)N2[C@H]1C(=O)O: inactive
Cc1nc2ccc(CN(C)c3ccc(C(=O)N[C@@H](CCC(=O)O)C(=O)O)s3)cc2c(=O)[nH]1: inactive
COC(=O)C1=C(C)NC(C)=C(C(=O)OC)C1c1ccccc1[N+](=O)[O-]: inactive
COc1ccc(-c2cc(=O)c3c(OC)c(OC)c(OC)c(OC)c3o2)cc1OC: inactive

Series 4 — technique: RNA Bind-n-Seq; molecule type: RNA; medium: in vitro; concentration: not given; setting: RNA with constant flanks, ends assumed; baseline: input RNA pool; direction: higher = stronger binding; quantity: bound/input enrichment
Target: RING finger protein unkempt homolog, zinc fingers 1-6, GST-SBP tag (UNK, Homo sapiens, UniProt Q9C0B0, residues 30-357)
All sequences stand within: GGGAGUUCUACAGUCCGACGAUC … CAACAGAGGAUUGAGCAUCA
Construct (chain): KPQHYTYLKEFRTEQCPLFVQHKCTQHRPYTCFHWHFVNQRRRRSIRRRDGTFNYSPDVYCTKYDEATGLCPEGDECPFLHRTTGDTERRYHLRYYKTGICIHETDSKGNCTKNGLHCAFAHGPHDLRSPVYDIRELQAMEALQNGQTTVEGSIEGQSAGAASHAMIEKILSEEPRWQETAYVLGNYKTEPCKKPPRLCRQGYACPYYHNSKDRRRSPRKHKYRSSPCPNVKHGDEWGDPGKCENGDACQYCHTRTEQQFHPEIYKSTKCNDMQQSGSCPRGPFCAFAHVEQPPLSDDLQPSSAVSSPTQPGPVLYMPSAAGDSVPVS
GCUUCUAAAAUGUGAUUAUCGACCAUGGUAUGCAUGAUCGUUGUAAUUGUUGACAUUCCUUUCCGAAGUUGUGAAAUGUUACAACUUGUGCUUCUGUAGACACAAUCUUCUGUCUCCAUA: 0.182 ratio
GAAUUGCCAGAGAGGGCAACAAAUCCAUUUGUAAAUAGAGAGUCAGCAGAGUUUUCAGUAUCCGAAUACUCAGAAAUGGGAUCAUCUUUCAAUGGCUCCCCAAAAGGAGAGUCAGCCAUG: 0.228 ratio
AUCAAGUAUUUUGGGGAUAUUAUUAGCGUGGGACAGAGAUUGUUGCAAGGGGCCCGGAUUUCCGGAAUUCCUGUUAUUGUAACAGAACAAUACCCUAAAGGUCUUGGGAGCACGGUUCAA: 0.443 ratio
CCAUGGACAACAAGCCUUGGGUAACCGGACCAGGCCAAGGGUCUACAAUUCUCCAACGAACCGCUCCUCUACCCAAGAUUCUAUGGAGGUUGGCCACAGUCACCACUCCAUGACAUCCCU: 0.0417 ratio
AAGAAGUCUCAGUAGUAAUCUUGUUCAUGUGCUUUUACAGCCAGCUACAUUUAAGAAUGUAUCCGUUACAGAAAUUAUAUGUCUGUGUAUGUGUCUCUACUCAAUAAAGUACAUGCCUCC: 0.547 ratio
AACAGAAGAAAAGUAAUGGACUCUGAUGAAGAUGACGAUUAUUGAACUACAAGUGCUCACAGACCCGAACUUAACGGAACAAGUCUAGGACAGAAGUUAAGAUCUGAUUAUUUACUUUGU: 0.0527 ratio
GUCAGUACACCAAGUUCUGGUCUGCUCAUGCUUCAUUGUCCAGAAAGCAGCAGGAAAUUGCCGUUCCGUUGUCAUCAAGCAGGAAGCAAAUGCAACACCGACCAAGGCAGUUUAGGUCAA: 0.302 ratio
CACACCCUCUUCUGUGGCACCCUCAUUCUGCAGGCCCGAGCCUACGUGGGACCCCGUGUGCCCGCAGUGGUGACUCGGACAGGGUUCUGCACAGCCAAAGGGGGCCUGGUGAGCUCCAUC: 0.156 ratio

Other studies, line by line
CC(C)n1cnc(-c2ccc(F)cc2)c1-c1ncc(C(=O)Nc2ccc(N3CCN(C)CC3)cc2)[nH]1  patients with alpha-HBDH increased TEAE (phase 2a clinical trial; patients with idiopathic pulmonary fibrosis; 30 mg once daily): 0%
CC(C)C[C@H]1NC(=O)[C@H](N(C)C(=O)[C@@H](CC2CCC2)NC(=O)[C@H]2C[C@H](F)CN2C(=O)C2(C(F)(F)F)CC(F)(F)C2)CCCCNC(=O)C2(CC2)NC(=O)[C@@H](Cc2cc(Cl)ccc2Cl)N(C)C1=O  cell count (NCI-H446; Vi-Cell counting; 200 nM, 6 days; baseline: DMSO): 1.03 and 0.839 and 1.22
CC(=O)N[C@@H](Cc1c[nH]c2ccccc12)C(=O)N[C@@H](CCC(=O)C=[N+]=[N-])C(=O)OC(C)C  sedoheptulose level (UPLC-MS/MS; EL4 tumor, C57BL/6 CES1-/- mice, tumor; subcutaneous, 0.3 mg/kg DON equivalent daily, 5 days; higher = more metabolite): 3.47e+06 a.u. and 3.21e+06 a.u. and 3.73e+06 a.u. and 2.34e+06 a.u. and 3.4e+06 a.u. and 3.66e+06 a.u.

For quick reference, copied from above (series 1):
Ephrin type-B receptor 1 (EPHB1, Homo sapiens, UniProt P54762); cell-free assay, competition with immobilised ligand: 100%
Mast/stem cell growth factor receptor Kit, autoinhibited (KIT, Homo sapiens, UniProt P10721); cell-free assay, competition with immobilised ligand: 83%
MAP/microtubule affinity-regulating kinase 4 (MARK4, Homo sapiens, UniProt Q96L34); cell-free assay, competition with immobilised ligand: 79%
Homeodomain-interacting protein kinase 4 (HIPK4, Homo sapiens, UniProt Q8NE63); cell-free assay, competition with immobilised ligand: 87%
Cyclin-dependent kinase 13 (CDK13, Homo sapiens, UniProt Q14004); cell-free assay, competition with immobilised ligand: 83%
Serine/threonine-protein kinase WNK2 (WNK2, Homo sapiens, UniProt Q9Y3S1); cell-free assay, competition with immobilised ligand: 85%
Serine/threonine-protein kinase WNK3 (WNK3, Homo sapiens, UniProt Q9BYP7); cell-free assay, competition with immobilised ligand: 96%
